Experimental data pooled from the literature.
Each line is one published result; not all experiments were run side by side. Numbers after ± are the reported error.

Compound | test | system | conditions | scale | measurement | result
CCCC[C@H](NC(=O)CN1CCC(NC(=O)CN2CCC(NC(=O)CN3CCN(CC(=O)O)CCN(CC(=O)O)CCN(CC(=O)O)CC3)CC2)CC1)C(=O)N[C@H]1CC(=O)NCCCC[C@@H](C(N)=O)NC(=O)[C@H](Cc2c[nH]c3ccccc23)NC(=O)[C@H](CCCNC(=N)N)NC(=O)[C@@H](Cc2ccccc2)NC(=O)[C@H](Cc2c[nH]cn2)NC1=O [gallium-68 labelled] | biodistribution | C57BL/6J mouse male tumour-bearing | 1 h post injection, unblocked | reference: tumour over blood | tumour to blood ratio | 13.6 ± 3.1
C[C@@H](O)[C@H](NC(=O)[C@H](CCCCN)NC(=O)[C@H](Cc1c[nH]c2ccccc12)NC(=O)CN)C(=O)N[C@@H](CCCNC(=N)N)C(=O)NC(C)(C)C(=O)N[C@@H](CCCNC(=N)N)C(=O)NC(C)(C)C(=O)N[C@H](C(=O)N[C@@H](CO)C(=O)N[C@@H](Cc1c[nH]cn1)C(=O)N[C@@H](Cc1ccc(O)cc1)C(=O)NCC(=O)O)[C@@H](C)O |  | C57BL/6 mouse, blood | intravenous, 50 mg/kg, 10 h | reference: leukocytes | monocytes | 3 to 5%
C=C1C(=O)OC2C1CCC(Cn1cc(-c3cc(C(F)(F)F)cc(C(F)(F)F)c3)nn1)=C1CCC(C)(O)C12 (stereo not drawn) | flow cytometry | mouse, bone marrow | dose not given |  | LSK cell number | no effect
CN(C)C(CNC(=O)Nc1cc(C(F)(F)F)ccc1N1CCOCC1)c1ccncc1 (stereo not drawn) |  | mouse, serum | intraperitoneal, 360 mg/kg single dose |  | serum chloride | 114 mmol/L
N=C(N)NCc1ccc(C(=O)NCCCC[C@H](NC(=O)CCCCCCC(=O)NCCCC[C@H](NC(=O)N[C@@H](CCC(=O)O)C(=O)O)C(=O)O)C(=O)O)cc1[211At] |  | SCID mouse, PC-3 xenografts, bone | 1 h |  | tissue uptake | 0.44 ± 0.1 %ID/g
CC(C)[C@H](NC(=O)CNC(=O)[C@H](CCC(N)=O)NC(=O)[C@H](C)N)C(=O)O |  | human | single dose, 3 mg/kg |  | possibly related adverse events | 0%
COc1ccc(C)cc1NC(=O)OC1CC2CCCC(C1)N2Cc1ccc(CC[18F])cc1 (stereo not drawn) |  | BALB/c mice EMT6 tumour, heart | dose not given, 2 h | reference: initial activity | activity reduction | 93%
CN(C)CC1CCCCC1(O)c1cccc(O)c1 (stereo not drawn) |  | Caco-2 | 10 µM, 3 h, pH 7.4 |  | Papp A→B | 12.9 ×10⁻⁶ cm/s
CC(CCC(=O)NCC(=O)O)C1CCC2C3CCC4CC(OC5OC(C(=O)O)C(O)C(O)C5O)CCC4(C)C3CC(O)C12C (stereo not drawn) |  | human, C/C genotype, plasma | dose not given, geometric mean, sex-adjusted |  | glucuronide to parent ratio | 2.61
CN[C@](C)(C[18F])C(=O)O |  | SCID mouse DU-145 xenograft, brain | 60 min, post injection |  | tissue uptake | 0.2 ± 0.03 %ID/g
CCCCCCCC/C=C\CCCCCCCCOP(O)(O)=S.N |  | mouse, female, nonirradiated | sc, dose not given |  | Tmax | 1 h
CC[C@H](C)[C@H](NC(=O)[C@H](CCC(=O)O)NC(=O)[C@H](CCC(=O)O)NC(=O)[C@H](Cc1ccccc1)NC(=O)[C@H](CC(=O)O)NC(=O)CNC(=O)[C@H](CC(N)=O)NC(=O)CNC(=O)CNC(=O)CNC(=O)CNC(=O)[C@@H]1CCCN1C(=O)[C@H](CCCNC(=N)N)NC(=O)[C@@H]1CCCN1C(=O)[C@H](N)Cc1ccccc1)C(=O)N1CCC[C@H]1C(=O)N[C@@H](CCC(=O)O)C(=O)N[C@@H](CCC(=O)O)C(=O)N[C@@H](Cc1ccc(O)cc1)C(=O)N[C@@H](CC(C)C)C(=O)O | LC-MS/MS | human plasma | -20 to 25 °C, three freeze-thaw cycles, nominal 3.0 ng/mL |  | concentration | 0.00299 ± 0.0001 µg/mL
COC(=O)C[C@](O)(CCCC(C)(C)OC(C)=O)C(=O)O[C@@H]1C(OC)=C[C@]23CCCN2CCc2cc4c(cc2[C@H]13)OCO4 |  | CD1 mouse, lung | subcutaneous, 1 mg/kg, 0.5 h |  | tissue concentration | 346 ng/mL
[11CH3]n1c(=O)n(CCCO)c(=O)c2c1nc(Oc1cccc(OC(F)(F)F)c1)n2Cc1ccc(Cl)cc1 | ex vivo biodistribution | Sprague Dawley rat, spleen | 30 min post injection |  | tracer uptake | 0.63 ± 0.03 %ID/g
CC[C@H](C)[C@H](NC(=O)[C@H](C)NC(=O)CNC(=O)[C@@H](N)CCSC)C(=O)N[C@@H](C)C(=O)N[C@@H](CCCCN)C(=O)N[C@@H](CC(C)C)C(=O)N[C@H](C(=O)N[C@@H](C)C(=O)N[C@@H](CCCCN)C(=O)N[C@@H](Cc1ccccc1)C(=O)NCC(=O)N[C@@H](Cc1c[nH]c2ccccc12)C(=O)N1CCC[C@H]1C(=O)N[C@@H](Cc1ccccc1)C(=O)N[C@H](C(=O)N[C@@H](CCCCN)C(=O)N[C@@H](CCCCN)C(=O)N[C@@H](Cc1ccccc1)C(=O)N[C@@H](Cc1ccc(O)cc1)C(=O)N[C@@H](CCCCN)C(=O)N[C@@H](CCC(N)=O)C(=O)N[C@H](C(=O)N[C@@H](CCSC)C(=O)N[C@@H](CCC(N)=O)C(=O)N[C@@H](Cc1ccccc1)C(=O)N[C@H](C(=O)NCC(=O)N[C@@H](CCC(N)=O)C(=O)NCC(=O)N[C@@H](Cc1c[nH]c2ccccc12)C(=O)N[C@H](C(=O)N[C@H](C(=O)N[C@@H](CC(=O)O)C(=O)N[C@@H](CCC(N)=O)C(=O)N[C@H](C(=O)N[C@@H](CCC(=O)O)C(=O)N[C@@H](CCCCN)C(=O)N[C@@H](Cc1c[nH]c2ccccc12)C(=O)N[C@@H](CC(C)C)C(=O)N[C@@H](CCCCN)C(=O)N[C@@H](CCCNC(=N)N)C(=O)N[C@@H](Cc1c[nH]cn1)C(=O)O)[C@@H](C)CC)[C@@H](C)CC)[C@@H](C)O)[C@@H](C)CC)[C@@H](C)CC)[C@@H](C)CC)C(C)C | thermal unfolding, far-UV CD | 10 mM sodium phosphate | 5-20 µM, pH 7.2 |  | Tm | 48.2 ± 0.3 °C
CC[C@H](C)C(=O)N1CCC(NC(=O)Nc2ccc(OC(F)(F)F)c(F)c2)CC1 |  | healthy volunteers | oral, 0.5 mg single dose |  | subjects with related TEAE | 0%
Cc1cc(Oc2nc(N3CC[C@@H](c4ccncc4)C3)ncc2F)[nH]n1 |  | BALB/c mice, female | s.c., 1500 mg/kg, long-acting injectable |  | duration of sustained exposure | ≥ 4 weeks
CN(C)c1ccc(C(=O)NCCCCN2CCN(c3ccccc3O[11CH3])CC2)cc1 |  | male Sprague Dawley rat, lung | iv, dose not given, with: cyclosporin A pretreatment | reference: cyclosporin A over untreated | uptake ratio | 0.94
CC(C)[C@H](NC(=O)CNC(=O)[C@H](CCC(N)=O)NC(=O)[C@H](C)N)C(=O)O |  | healthy male volunteers | intravenous, 90 mg/kg/h, 2 h, with: LPS 2 ng/kg |  | subjects given concomitant medication | 0%
CCc1c2c(nc3ccc(OC4OC(C(=O)O)C(O)C(O)C4O)cc13)-c1cc3c(c(=O)n1C2)COC(=O)C3(O)CC (stereo not drawn) |  | human patients, plasma | intravenous, 32 mg/m^2 of parent drug |  | AUC(0-inf) | 853 ng·h/mL
CC(C)C[C@H](NC(=O)[C@H](CCCCN)NC(=O)[C@H](CCC(=O)O)NC(=O)[C@H](C)NC(=O)[C@@H](NC(=O)[C@H](CCCCN)NC(=O)[C@H](CC(=O)O)NC(=O)[C@H](Cc1ccc(O)cc1)NC(=O)[C@H](Cc1ccccc1)NC(=O)[C@H](C)NC(=O)[C@H](CCCCN)NC(=O)[C@H](CC(C)C)NC(=O)[C@H](Cc1c[nH]c2ccccc12)NC(=O)[C@@H](N)CC(=O)O)C(C)C)C(=O)N[C@@H](CCCCN)C(=O)N[C@@H](CCC(=O)O)C(=O)N[C@@H](C)C(=O)N[C@@H](Cc1ccccc1)C(=O)N1CCC[C@H]1C(=O)N[C@@H](CC(=O)O)C(=O)N[C@@H](Cc1c[nH]c2ccccc12)C(=O)N[C@@H](C)C(=O)N[C@@H](CCCCN)C(=O)N[C@@H](C)C(=O)N[C@@H](C)C(=O)N[C@@H](Cc1ccc(O)cc1)C(=O)N[C@@H](CC(=O)O)C(=O)N[C@@H](CCCCN)C(=O)N[C@@H](C)C(=O)N[C@@H](C)C(=O)N[C@@H](CCC(=O)O)C(=O)N[C@@H](CCCCN)C(=O)N[C@@H](C)C(=O)N[C@@H](CCCCN)C(=O)N[C@@H](CCC(=O)O)C(=O)N[C@@H](C)C(=O)N[C@@H](C)C(=O)O |  | cynomolgus monkey female, plasma | intravenous infusion, 25 mg/kg every other day, day 27 |  | Cmax | 436 µg/mL
CC(=CCC(O)C(C)=Cc1csc(C)n1)CC=CC(C)C(O)C(C)C(=O)C(C)(C)C(O)CC(=O)O (stereo not drawn) |  | human, plasma | intravenous infusion, 8.5 mg/m2 KOS-1584, 3 h infusion, cycle 1 |  | half-life | 19.2 ± 2.69 h
NC(=O)[C@@H](Cc1ccccc1)N[11C](=O)OCc1ccccc1 | dynamic PET | Wistar rat, male, whole brain | intravenous, 3 min |  | SUV max | 1.5
CC(C)[C@H](N)C(=O)N[C@@H](Cc1ccc(O)cc1)C(=O)N[C@@H](CCCCN)C(=O)N[C@H](C(=O)N[C@@H](CCCCN)C(=O)N[C@H](C(=O)N[C@@H](CCCCN)C(=O)N[C@H](C(=O)N[C@@H](CCCCN)C(=O)N[C@H](C(=O)N[C@@H](CCCCN)C(=O)N[C@H](C(=O)N[C@@H](CCCCN)C(=O)N[C@H](C(=O)N[C@@H](CCCCN)C(=O)N[C@H](C(=O)N[C@@H](CCCCN)C(=O)N[C@H](C(=O)O)[C@@H](C)O)C(C)C)[C@@H](C)O)C(C)C)[C@@H](C)O)C(C)C)[C@@H](C)O)C(C)C | circular dichroism | PBS | 0.05 mg/mL, shift at 222 nm |  | transition onset | 20 % TFE
Cc1cccc(-c2cccc(C)n2)n1.[Cl-].[Cl-].[Ru+2].c1ccc(-c2ccccn2)nc1.c1ccc(-c2ccccn2)nc1 |  | phosphate buffer with NaCl | concentration not given, pH 6.0, 37 °C, dark, dialysis |  | total release from nanoassemblies | 95.3%
CC(C)C[C@H](NC(=O)[C@H](CCCCN)NC(=O)[C@H](C)NC(=O)[C@H](CC(C)C)NC(=O)[C@H](CCCCN)NC(=O)[C@H](CCCCN)NC(=O)[C@H](C)NC(=O)[C@H](CC(C)C)NC(=O)[C@H](CCCCN)NC(=O)[C@H](C)NC(=O)[C@H](CC(C)C)NC(=O)[C@H](CCCCN)NC(=O)[C@H](Cc1c[nH]cn1)NC(=O)[C@H](C)NC(=O)[C@@H](N)CC(=O)O)C(=O)N[C@@H](C)C(=O)N[C@@H](CCCCN)C(N)=O | haemolysis | human red blood cells | 1 h |  | HD10 | 8 µM
COCCOCCOCCOc1ccc(/C=C/c2c(I)c(C)c3n2[B-](F)(F)[N+]2=C(C)C(I)=C(C)C2=C3c2cc(OC)cc(OC)c2)cc1 |  | dichloromethane |  | reference: methylene blue | fluorescence quantum yield | 0.3
O=C(CCCCCCC(=O)Nc1ccc(N=Nc2ccccc2)cc1)NO | 1H NMR | DMSO | irradiation 365 nm |  | cis isomer content | 95%
COc1cc(C(=O)NCCOCCOCCOCCNC(=O)c2ccc([18F])nc2)ccc1NC(=O)C1NC(CC(C)(C)C)C(C#N)(c2ccc(Cl)cc2F)C1c1cccc(Cl)c1F (stereo not drawn) |  | athymic male mice, SJSA-1 xenograft | 2 h | reference: tumour over blood | tumour-to-tissue ratio | 1.15 ± 0.13
O=P([O-])([O-])Oc1ccc(-c2cc(=S)ss2)cc1.[Na+].[Na+] | HPLC | 0.9% NaCl | 48 h, pH 7.4, 25 °C |  | solubility | 1543 ± 4.45 µg/mL

Repeated from above:
Compound | test | system | conditions | scale | measurement | result
CC(C)[C@H](N)C(=O)N[C@@H](Cc1ccc(O)cc1)C(=O)N[C@@H](CCCCN)C(=O)N[C@H](C(=O)N[C@@H](CCCCN)C(=O)N[C@H](C(=O)N[C@@H](CCCCN)C(=O)N[C@H](C(=O)N[C@@H](CCCCN)C(=O)N[C@H](C(=O)N[C@@H](CCCCN)C(=O)N[C@H](C(=O)N[C@@H](CCCCN)C(=O)N[C@H](C(=O)N[C@@H](CCCCN)C(=O)N[C@H](C(=O)N[C@@H](CCCCN)C(=O)N[C@H](C(=O)O)[C@@H](C)O)C(C)C)[C@@H](C)O)C(C)C)[C@@H](C)O)C(C)C)[C@@H](C)O)C(C)C | circular dichroism | PBS | 0.05 mg/mL, shift at 222 nm |  | transition onset | 20 % TFE
Cc1cccc(-c2cccc(C)n2)n1.[Cl-].[Cl-].[Ru+2].c1ccc(-c2ccccn2)nc1.c1ccc(-c2ccccn2)nc1 |  | phosphate buffer with NaCl | concentration not given, pH 6.0, 37 °C, dark, dialysis |  | total release from nanoassemblies | 95.3%
